Results collected from several papers.
Numbered parts are unrelated; each lists some results of a single study. Changes are numbered by the printed parent chain.

Set 1
Target: Sal-like protein 4, full length isoform B (SALL4, Homo sapiens, UniProt Q9UJQ4-2, residues 1-616)
Method: universal PBM
Form: double-stranded DNA, one strand shown
Sample: in vitro
Concentration: not given
Setting: 8-mer, flanks averaged, mean of replicates
Reading: higher = stronger binding
Measurement: E-score
CATGAAGG: 0.0735
CGCTGGTC: -0.271
CTAACGTA: 0.241
AGTCAAAT: 0.254
ATAAGCCA: 0.178
CCTGTCGA: -0.181
GCATCACA: -0.0238
GATGTTGC: -0.0197

Set 2
Target: CCND2, cyclin fold, Cln2 fusion (human)
Method: yeast growth competition, sequencing
Sample: yeast
Setting: weak parent motif
Reference: not given
Reading: higher = stronger binding
Measurement: normalised enrichment score
Starting sequence: BRCA2 docking peptide (human); CKKRRALDFLSRL; partner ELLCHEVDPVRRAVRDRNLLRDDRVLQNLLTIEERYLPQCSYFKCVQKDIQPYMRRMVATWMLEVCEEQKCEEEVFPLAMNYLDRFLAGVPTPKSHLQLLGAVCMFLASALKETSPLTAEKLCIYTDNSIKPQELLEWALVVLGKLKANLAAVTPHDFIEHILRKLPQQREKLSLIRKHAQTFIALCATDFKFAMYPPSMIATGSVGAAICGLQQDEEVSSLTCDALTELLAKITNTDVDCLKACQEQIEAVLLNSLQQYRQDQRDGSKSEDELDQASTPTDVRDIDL
L13A: 0.321
F9A: 0.28
R5A L7A: -0.0161
D8A: 0.184
K3A: 0.263
R5K F9L: 0.411
R5K: -0.423
L10A: 0.482

Set 3
Target: Interferon regulatory factor 7, full length, phosphomimetic (IRF7, Homo sapiens, UniProt Q92985, residues 1-503, S101K/S471D/S472D/S475D/S476D/S477D/S483D/S484D/S487D)
Method: protein-binding microarray
Form: double-stranded DNA, one strand shown
Sample: in vitro
Concentration: 250 nM
Setting: 60-bp whole probe
Together with: salmon DNA 0.4 mg/ml
Reference: random background probes
Reading: higher = stronger binding
Measurement: log fluorescence
Constant ends, left off below: GCCTAGCAC … GTCTTGATTCGCTTGACGCTGCTG
Construct (chain): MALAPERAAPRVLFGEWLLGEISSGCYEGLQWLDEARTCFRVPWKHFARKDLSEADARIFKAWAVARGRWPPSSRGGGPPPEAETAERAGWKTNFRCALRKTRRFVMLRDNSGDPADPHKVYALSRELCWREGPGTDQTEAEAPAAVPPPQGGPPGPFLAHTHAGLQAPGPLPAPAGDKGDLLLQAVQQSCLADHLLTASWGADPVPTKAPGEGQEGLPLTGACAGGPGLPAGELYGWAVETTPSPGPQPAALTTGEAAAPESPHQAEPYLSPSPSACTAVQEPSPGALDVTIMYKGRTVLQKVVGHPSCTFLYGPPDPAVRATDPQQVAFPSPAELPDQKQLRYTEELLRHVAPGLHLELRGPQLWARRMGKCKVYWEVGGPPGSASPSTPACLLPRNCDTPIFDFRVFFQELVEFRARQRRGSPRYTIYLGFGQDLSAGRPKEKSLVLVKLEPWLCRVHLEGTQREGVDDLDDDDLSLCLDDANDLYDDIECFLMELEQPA
GACGGTATCGGACTGGGGAGGTGCTAG: -0.297 z-score
TCTACTGTCTGTTTCCTCTTGTGCTAG: 0.654 z-score
GACGGTTTCCTTTTCCTTACGTGCTAG: 7.02 z-score
GACGGTTTCGGGTTTCGGCACGTGCTA: 11.3 z-score
TTAGGACTGGATATCGGTTAGTGCTAG: -0.19 z-score
TTAGGCATCGACACTGGGTTAGTGCTA: -0.88 z-score
TAAGGTTTCGGTCTCGGTTAGTGCTAG: 9.11 z-score
ACGTTTTTCATTTTTTTTTTGTGCTAG: 2.13 z-score

Single results of other studies
CCOC(=O)CCCOc1nc(C(C)C)c2c(c1C#N)CCCC2  remaining compound (human, microsomes or S9; 2 µM, 0.5 h): > 100%
